{"data": "Experimental data pooled from the literature", "note": "Parts stem from different laboratories: compare values within a part only."}
{"data": "Study 1", "target": "Myc proto-oncogene protein, bHLH-zipper, MAX partner unstated (MYC, Homo sapiens, UniProt P01106, residues 368-449)", "method": "protein-binding microarray", "molecule type": "double-stranded DNA, one strand shown", "sample": "in vitro", "concentration": "not given", "notes": "k-mer, scored over probes, only values ≥0.25", "direction": "higher = stronger binding", "UniProt P01106, sequence (368-449, looked up)": "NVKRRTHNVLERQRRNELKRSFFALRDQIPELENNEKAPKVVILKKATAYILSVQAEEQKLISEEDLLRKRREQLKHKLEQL"}
{"Sequence": "ATCCACGC", "E-score": 0.388}
{"Sequence": "ACATGGAA", "E-score": 0.335}
{"Sequence": "GAAAGCAC", "E-score": 0.264}
{"data": "Study 2", "target": "Interferon regulatory factor 7, full length, phosphomimetic (IRF7, Homo sapiens, UniProt Q92985, residues 1-503, S101K/S471D/S472D/S475D/S476D/S477D/S483D/S484D/S487D)", "method": "protein-binding microarray", "molecule type": "double-stranded DNA, one strand shown", "sample": "in vitro", "concentration": "250 nM", "notes": "60-bp whole probe", "together with": "salmon DNA 0.4 mg/ml", "relative to": "random background probes", "direction": "higher = stronger binding", "shared flanks, not repeated": "GCCTAGCAC … GTGCTAGGTCTTGATTCGCTTGACGCTGCTG", "UniProt Q92985, sequence (whole entry, unmodified, looked up)": "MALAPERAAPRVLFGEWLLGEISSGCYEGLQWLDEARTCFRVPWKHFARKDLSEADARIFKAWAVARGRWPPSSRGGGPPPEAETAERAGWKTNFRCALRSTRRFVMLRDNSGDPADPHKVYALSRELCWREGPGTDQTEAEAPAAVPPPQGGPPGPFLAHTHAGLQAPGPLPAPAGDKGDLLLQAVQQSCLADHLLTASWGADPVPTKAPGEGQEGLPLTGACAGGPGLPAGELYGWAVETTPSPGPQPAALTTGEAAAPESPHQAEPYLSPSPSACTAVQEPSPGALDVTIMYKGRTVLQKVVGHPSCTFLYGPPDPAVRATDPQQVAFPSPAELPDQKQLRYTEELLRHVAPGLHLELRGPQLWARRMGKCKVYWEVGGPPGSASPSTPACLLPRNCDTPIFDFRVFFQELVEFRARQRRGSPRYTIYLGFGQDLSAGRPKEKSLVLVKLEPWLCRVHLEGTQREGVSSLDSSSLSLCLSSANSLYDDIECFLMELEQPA"}
{"Sequence": "GACGCTATCAGTCTCGAGAC", "log fluorescence [z-score]": 0.686}
{"Sequence": "ATGACCTCACTGCCTGACAC", "log fluorescence [z-score]": -0.122}
{"Sequence": "TCAAATTTGGAAACCGAACT", "log fluorescence [z-score]": 0.65}
{"Sequence": "TCAGTTTTCTTTTCATTACT", "log fluorescence [z-score]": 4.56}
{"Sequence": "TTAGAACTGAGTTTCGATTT", "log fluorescence [z-score]": 12.9}
{"Sequence": "GACGGTATCGGTTTCGAGAC", "log fluorescence [z-score]": 7.15}
{"data": "Study 3", "target": "Histone acetyltransferase KAT6A, winged helix 1, GST fusion (KAT6A, Homo sapiens, UniProt Q92794, residues 1-85)", "method": "protein binding microarray", "molecule type": "double-stranded DNA, one strand shown", "sample": "in vitro", "concentration": "not given", "notes": "8-mer, flanks averaged, mean of 2 arrays, mostly near background", "relative to": "not given", "direction": "higher = stronger binding", "Construct (chain)": "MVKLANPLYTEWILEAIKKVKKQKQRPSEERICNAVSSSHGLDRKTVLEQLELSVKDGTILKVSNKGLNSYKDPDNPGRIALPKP"}
{"Sequence": "GCTTACGA", "E-score": -0.0604}
{"Sequence": "AGAGCCGA", "E-score": 0.202}
{"Sequence": "CATTAACC", "E-score": 0.0564}
{"Sequence": "CCAGGAAG", "E-score": -0.0555}
{"Sequence": "CAGTCGCC", "E-score": 0.0323}
{"data": "Further values, each from its own experiment"}
{"Molecule": "PhoQ, residues 284 288 289 292 302 303 SNGLAW", "target": "PhoP, residues 12 14 15 18 19 LYFRQ (Escherichia coli, UniProt P23836)", "assay": "Sort-seq, refers to: YFP reporter", "system": "E. coli", "conditions": "PhoQ-PhoP variant library, together with: 10 µM Mg2+", "scale": "relative to: high Mg2+ state, higher = stronger signaling", "endpoint": "fold induction", "value": 15.6}
{"note": "Some of these lines once more (study 2):"}
{"Sequence": "TTAGAACTGAGTTTCGATTT", "log fluorescence [z-score]": 12.9}
{"Sequence": "GACGCTATCAGTCTCGAGAC", "log fluorescence [z-score]": 0.686}
